Results pooled from the literature.
Numbered parts are unrelated; each lists some results of a single study.
Sequence of UniProt Q8NEB9 (whole entry, looked up): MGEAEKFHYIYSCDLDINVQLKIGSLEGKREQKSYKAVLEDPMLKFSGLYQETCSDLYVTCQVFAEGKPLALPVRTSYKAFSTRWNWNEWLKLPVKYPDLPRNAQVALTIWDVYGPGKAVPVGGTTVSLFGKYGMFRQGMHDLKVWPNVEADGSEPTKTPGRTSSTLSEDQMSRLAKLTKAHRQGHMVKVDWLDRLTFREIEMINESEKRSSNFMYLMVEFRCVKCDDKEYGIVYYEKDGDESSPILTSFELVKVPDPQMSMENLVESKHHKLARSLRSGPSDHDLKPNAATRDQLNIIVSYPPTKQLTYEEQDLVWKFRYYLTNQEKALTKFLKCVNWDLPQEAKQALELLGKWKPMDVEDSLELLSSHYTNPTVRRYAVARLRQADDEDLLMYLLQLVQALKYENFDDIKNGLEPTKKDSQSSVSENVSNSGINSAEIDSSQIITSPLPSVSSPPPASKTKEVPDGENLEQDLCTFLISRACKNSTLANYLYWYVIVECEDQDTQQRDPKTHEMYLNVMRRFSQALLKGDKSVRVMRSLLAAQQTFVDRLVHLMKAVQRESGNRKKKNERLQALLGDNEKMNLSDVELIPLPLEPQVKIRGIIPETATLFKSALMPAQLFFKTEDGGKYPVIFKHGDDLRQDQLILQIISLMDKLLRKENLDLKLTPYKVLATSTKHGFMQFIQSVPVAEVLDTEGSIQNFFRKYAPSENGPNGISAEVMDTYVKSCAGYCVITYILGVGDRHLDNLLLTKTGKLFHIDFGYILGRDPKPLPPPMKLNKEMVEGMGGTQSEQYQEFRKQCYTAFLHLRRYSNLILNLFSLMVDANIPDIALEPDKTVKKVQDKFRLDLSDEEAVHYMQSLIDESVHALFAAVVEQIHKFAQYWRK

Study 1 — technique: aptamer microarray, sandwich; molecule type: DNA with 2'F-ANA; medium: in vitro; concentration: 200 nM; added: Cy3 exosite-II aptamer, 400 nM; direction: higher = stronger binding; endpoint: mean fluorescence intensity; strand: GGTTGGTGTGGTTGG
Target: Prothrombin, mature alpha-thrombin (F2, Homo sapiens, UniProt P00734)
Setting: whole 15-mer aptamer, many near background
2'F-ANA at 1 3 11 12 13: 447 a.u.
2'F-ANA at 1 4 6 7 8 9 12 13 14 15: 56 a.u.
2'F-ANA at 1 2 5 6 7 9 13 14 15: 47.7 a.u.
2'F-ANA at 1 3 6 7 9 13 14: 72.7 a.u.
2'F-ANA at 1 3 4 7 10 11 14: 91.2 a.u.
2'F-ANA at 1 2 6 9 12: 291 a.u.
2'F-ANA at 1 3 5 8 10 12 13 15: 59.5 a.u.
2'F-ANA at 3 4 5 7 10 11 12 13 14 15: 49.3 a.u.

Study 2 — technique: RNA Bind-n-Seq; molecule type: RNA; medium: in vitro; concentration: 365 nM; reference: no-protein control; direction: higher = stronger binding; endpoint: RBNS enrichment (R)
Target: RNA binding protein fox-1 homolog 2, RRM domain, GST-SBP tag (RBFOX2, Homo sapiens, UniProt O43251-10, residues 100-194)
Setting: natural RNA segment, single round, ends assumed
All sequences stand within: GGGAGUUCUACAGUCCGACGAUC … UGGAAUUCUCGGGUGCCAA
Target sequence (chain): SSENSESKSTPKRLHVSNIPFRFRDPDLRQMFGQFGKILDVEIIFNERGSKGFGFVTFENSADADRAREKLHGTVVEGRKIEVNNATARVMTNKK
UAUUCCCUGACAUUUUCUUCCAUGUAGCCAUAAGCAGGGACCCAGCAUACAAUUCUUCUUACCUAGGAAUCAGGAACUAGUCCCAAAUAUACAGGAUUGAGUCAUGGUUU: 0.567
CAUUCUGGCCUGGUGUGUCUGAAAGUUGCAUCAGUCCUCACGGUGCAAACACAGUUGAUUUAGGAAGUCACACAAUGACACUGAAAUCCUACAGACCAAAAUCCACUUGU: 0.221
UCUCUCUUGUCACAUGGAAUCUACAUGUGUUUGAACUAUUGCUUUAGGGUUUAAAAUAGGGGAGCCUGUGGUGGCCUGGUGCACAGGGCUAGAACGAGAGUGCCUCCCCU: 0.903
GGAUUUACUAUAGGUGAAGAUAGCCCUCAUAUUCAAGGACAGAAGCUCUGGCAGGAGUAAAUUAGCAAAGCAGAAAUAGUACCCUUUCAUUCUUGGAGGUGCUUUGAAAU: 0.902
ACUCUGCUUCCUUGUGGGUGGCCUUUUUUUACCGAUCCCCUUUUUUAUUUUUUACAACCGGACCUCCACCCCCAACUUCCUCCAGCCCAGCUGGGCUUCCUUUGUUGGAG: 0.525
UGGAGUCCUGGCUGGAGGUCCUCCCCCAGUGGCCUUCCUCCCUUCCUUUCACAGCCGGUCUCUCUGCCAGGAAAUGGGGGAAGGAACUAGAACCACCUGCACCUUGAGAU: 0.426
UUUCAAAAUAAAACUACCCAUCCUCAUUCAACACUUCCAAUGGGAAAAUUCAGAGAUGAGAUCUUAACACAGCUUCACUCAGGAAGAGACUCACAUGACAGAGCAACUCU: 0.76
CCUUUGCAUCUCUGCUCUUCACUCCUGGGGGGCAGCUGAGCUCCCCGCGUGCUGUGUCACUGCUUUGUUCCAGACACAAACCAGCACGUCUAGGGCCCAGCCCCUCCCCC: 0.797

Study 3 — technique: competition protein-binding microarray; molecule type: double-stranded DNA, one strand shown; medium: in vitro; concentration: 2 µM; added: Pho4 competitor, 0.05 µM; direction: higher = stronger binding; endpoint: fluorescence intensity; all sequences stand within: … GTCTTGATTCGCTTGACGCTGCTG
Target: Centromere-binding protein 1, full length, His-tagged (CBF1, Saccharomyces cerevisiae, UniProt P17106, residues 1-351)
Sequence of UniProt P17106 (whole entry, looked up): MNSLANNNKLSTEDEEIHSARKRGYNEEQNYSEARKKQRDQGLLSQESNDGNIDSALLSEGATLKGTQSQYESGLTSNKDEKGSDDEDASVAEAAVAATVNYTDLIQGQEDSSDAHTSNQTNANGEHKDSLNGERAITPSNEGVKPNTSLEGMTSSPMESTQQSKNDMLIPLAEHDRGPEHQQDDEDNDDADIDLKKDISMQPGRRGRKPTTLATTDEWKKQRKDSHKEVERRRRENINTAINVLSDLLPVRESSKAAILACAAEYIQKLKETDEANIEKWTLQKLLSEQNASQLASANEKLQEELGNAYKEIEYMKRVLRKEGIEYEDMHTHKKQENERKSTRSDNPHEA
Setting: whole 60-bp probe, lowest competitor level
CATTTCTGTCCATGCCTCGTGCGGAAATGATTGAAT: 161 a.u.
TTACTTTAACCTTTAGTAAATTCAGCGTCTTGACCA: 67.2 a.u.
GCCTTTTCCATCGACCACGTTGACAAATACGGCATC: 150 a.u.
TTTCGGCTTCACCTACACGTTTGATTAATCTTAAAG: 81 a.u.
GTCTTCGTCGTCGACACCGTGATGGGATTGTAGTTC: 87.8 a.u.
TCGGCCATTGAGTTCCACGTTTAATACCGCCAGAGT: 72.2 a.u.
GTAAAGGTAAACCATCACGTGCTTTCGAAGATAAAT: 7000 a.u.
AGGACCTGCGTCCTTCACGCTGAAGCGGCAGCAAGC: 57 a.u.

Other studies, line by line
C[C@@H](c1cccc(C#N)c1)n1cc(Cl)cc(C(N)=O)c1=N — remaining binding (Phosphatidylinositol 3-kinase catalytic subunit type 3 (PIK3C3, Homo sapiens, UniProt Q8NEB9); cell-free assay, competition with immobilised ligand; 1 µM): 97%
